Results gathered from unrelated publications.
A part holds a random share of what one study measured.
Sequence of UniProt P42336 (whole entry, unmodified, looked up): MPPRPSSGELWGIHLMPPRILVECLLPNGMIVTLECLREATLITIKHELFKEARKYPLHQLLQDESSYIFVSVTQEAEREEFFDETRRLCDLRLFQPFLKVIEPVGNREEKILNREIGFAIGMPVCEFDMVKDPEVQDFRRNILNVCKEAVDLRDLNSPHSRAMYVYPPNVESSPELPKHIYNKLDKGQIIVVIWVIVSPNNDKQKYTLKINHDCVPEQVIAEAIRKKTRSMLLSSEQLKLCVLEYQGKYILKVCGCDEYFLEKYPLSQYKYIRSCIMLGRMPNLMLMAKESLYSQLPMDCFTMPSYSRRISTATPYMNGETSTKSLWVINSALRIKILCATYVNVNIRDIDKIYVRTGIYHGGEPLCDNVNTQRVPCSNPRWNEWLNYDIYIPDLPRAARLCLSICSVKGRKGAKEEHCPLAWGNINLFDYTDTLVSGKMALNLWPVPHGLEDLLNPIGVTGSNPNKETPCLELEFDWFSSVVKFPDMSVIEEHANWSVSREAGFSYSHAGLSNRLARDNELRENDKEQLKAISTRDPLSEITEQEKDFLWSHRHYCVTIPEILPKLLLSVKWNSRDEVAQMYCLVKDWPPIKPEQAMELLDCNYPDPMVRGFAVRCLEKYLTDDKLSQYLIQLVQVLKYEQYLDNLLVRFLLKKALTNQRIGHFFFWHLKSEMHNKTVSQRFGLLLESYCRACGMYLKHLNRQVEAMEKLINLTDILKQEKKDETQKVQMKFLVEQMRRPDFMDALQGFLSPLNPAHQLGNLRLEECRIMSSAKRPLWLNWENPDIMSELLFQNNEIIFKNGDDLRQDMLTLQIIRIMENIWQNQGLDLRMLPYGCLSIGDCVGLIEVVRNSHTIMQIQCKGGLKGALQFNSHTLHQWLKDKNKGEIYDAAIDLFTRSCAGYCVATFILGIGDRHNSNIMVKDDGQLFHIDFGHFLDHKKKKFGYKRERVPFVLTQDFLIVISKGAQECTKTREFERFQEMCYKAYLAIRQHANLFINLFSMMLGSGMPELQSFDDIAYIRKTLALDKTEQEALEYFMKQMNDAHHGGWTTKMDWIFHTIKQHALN
Sequence of UniProt P28482 (whole entry, looked up): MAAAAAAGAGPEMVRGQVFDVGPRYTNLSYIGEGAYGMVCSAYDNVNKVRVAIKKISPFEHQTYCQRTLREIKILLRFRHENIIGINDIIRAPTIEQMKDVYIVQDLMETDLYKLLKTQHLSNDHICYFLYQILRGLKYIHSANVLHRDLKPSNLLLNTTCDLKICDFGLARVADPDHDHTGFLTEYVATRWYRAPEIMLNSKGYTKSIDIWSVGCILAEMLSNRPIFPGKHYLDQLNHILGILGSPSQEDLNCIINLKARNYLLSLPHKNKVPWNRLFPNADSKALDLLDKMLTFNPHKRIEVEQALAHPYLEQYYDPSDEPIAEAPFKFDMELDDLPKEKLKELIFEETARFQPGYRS
Sequence of UniProt Q8N4C8 (whole entry, looked up): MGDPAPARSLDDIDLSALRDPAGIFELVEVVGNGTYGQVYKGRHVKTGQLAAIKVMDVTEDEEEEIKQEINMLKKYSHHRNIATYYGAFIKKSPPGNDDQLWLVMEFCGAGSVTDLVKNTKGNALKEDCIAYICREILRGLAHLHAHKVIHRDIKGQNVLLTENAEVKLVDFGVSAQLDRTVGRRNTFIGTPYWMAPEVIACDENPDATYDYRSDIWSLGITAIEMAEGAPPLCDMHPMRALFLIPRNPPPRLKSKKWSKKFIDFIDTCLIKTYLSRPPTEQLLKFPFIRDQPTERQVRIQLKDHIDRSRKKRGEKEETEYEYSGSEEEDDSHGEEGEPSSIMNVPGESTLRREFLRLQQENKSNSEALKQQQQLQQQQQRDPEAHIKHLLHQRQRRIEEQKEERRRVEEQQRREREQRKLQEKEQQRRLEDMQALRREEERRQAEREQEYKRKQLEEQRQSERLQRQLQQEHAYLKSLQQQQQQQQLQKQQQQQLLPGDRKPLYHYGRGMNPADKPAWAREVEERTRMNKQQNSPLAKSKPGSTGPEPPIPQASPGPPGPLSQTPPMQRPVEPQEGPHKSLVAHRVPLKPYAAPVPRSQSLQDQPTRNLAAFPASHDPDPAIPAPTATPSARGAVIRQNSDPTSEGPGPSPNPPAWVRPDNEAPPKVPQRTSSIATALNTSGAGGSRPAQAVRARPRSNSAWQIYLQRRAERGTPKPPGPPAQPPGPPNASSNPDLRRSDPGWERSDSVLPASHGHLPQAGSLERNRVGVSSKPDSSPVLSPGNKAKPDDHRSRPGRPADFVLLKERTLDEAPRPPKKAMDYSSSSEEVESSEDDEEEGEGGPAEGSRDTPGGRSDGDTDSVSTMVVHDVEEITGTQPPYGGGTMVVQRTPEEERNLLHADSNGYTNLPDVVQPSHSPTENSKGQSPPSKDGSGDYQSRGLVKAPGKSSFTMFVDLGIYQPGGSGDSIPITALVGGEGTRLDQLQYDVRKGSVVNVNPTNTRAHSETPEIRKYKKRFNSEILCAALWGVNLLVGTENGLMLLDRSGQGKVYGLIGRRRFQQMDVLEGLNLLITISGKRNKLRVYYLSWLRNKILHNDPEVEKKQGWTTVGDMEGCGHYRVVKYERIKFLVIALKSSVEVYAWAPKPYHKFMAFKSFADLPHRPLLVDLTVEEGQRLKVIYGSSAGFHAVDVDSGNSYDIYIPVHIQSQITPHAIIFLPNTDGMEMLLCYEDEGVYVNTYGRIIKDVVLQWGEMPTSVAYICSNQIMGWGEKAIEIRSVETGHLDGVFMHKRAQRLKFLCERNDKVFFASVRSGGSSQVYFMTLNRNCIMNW
Sequence of UniProt P50750 (whole entry, looked up): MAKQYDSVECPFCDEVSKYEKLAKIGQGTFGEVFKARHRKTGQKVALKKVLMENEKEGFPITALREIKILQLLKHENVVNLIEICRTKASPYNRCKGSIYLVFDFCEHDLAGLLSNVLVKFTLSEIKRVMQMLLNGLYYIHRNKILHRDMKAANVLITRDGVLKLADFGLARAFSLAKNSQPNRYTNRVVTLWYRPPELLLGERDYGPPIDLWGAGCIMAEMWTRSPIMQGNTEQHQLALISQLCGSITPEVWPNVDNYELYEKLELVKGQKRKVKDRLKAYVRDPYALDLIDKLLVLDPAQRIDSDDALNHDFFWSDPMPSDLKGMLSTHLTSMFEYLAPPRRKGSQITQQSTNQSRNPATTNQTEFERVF
Sequence of UniProt Q16832 (whole entry, looked up): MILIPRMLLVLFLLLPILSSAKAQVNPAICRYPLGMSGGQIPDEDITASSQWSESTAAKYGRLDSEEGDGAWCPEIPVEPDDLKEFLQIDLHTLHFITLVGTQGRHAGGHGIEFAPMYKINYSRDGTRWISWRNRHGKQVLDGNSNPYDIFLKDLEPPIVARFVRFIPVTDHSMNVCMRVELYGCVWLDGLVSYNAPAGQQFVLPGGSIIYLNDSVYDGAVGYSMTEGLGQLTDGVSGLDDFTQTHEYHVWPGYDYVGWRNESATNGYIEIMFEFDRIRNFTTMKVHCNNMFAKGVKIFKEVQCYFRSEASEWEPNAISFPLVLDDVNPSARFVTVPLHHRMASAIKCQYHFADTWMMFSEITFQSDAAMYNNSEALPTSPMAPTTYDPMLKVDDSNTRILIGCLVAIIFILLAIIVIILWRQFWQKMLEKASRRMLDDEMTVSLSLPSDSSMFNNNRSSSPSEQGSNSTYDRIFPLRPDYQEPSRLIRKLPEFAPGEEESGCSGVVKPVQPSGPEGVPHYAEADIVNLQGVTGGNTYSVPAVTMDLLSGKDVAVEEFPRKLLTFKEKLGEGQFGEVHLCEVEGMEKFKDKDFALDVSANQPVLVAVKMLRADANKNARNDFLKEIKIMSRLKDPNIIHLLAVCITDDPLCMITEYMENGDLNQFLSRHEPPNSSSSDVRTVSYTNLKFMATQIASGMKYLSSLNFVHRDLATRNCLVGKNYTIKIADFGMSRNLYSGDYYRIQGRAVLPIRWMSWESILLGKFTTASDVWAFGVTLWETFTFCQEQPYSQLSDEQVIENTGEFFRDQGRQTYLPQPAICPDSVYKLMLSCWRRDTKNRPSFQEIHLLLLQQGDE
Sequence of UniProt Q16566 (whole entry, looked up): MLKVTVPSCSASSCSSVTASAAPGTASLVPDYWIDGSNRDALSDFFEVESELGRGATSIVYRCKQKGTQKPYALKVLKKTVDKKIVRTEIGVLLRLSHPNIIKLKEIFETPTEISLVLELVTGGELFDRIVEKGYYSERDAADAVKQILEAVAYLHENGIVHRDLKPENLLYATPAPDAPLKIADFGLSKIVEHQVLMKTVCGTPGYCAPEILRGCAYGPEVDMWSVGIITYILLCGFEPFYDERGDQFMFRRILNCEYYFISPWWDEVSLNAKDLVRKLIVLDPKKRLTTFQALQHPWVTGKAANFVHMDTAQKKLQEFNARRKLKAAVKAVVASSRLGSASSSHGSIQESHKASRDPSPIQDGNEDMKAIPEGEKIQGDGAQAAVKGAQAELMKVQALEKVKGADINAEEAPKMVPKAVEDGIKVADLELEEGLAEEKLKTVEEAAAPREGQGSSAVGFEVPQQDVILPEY

Set 1 — observed: enzyme activity; action: inhibitor; tested at: 0.5 µM; relative to: control
Structure (SMILES): C[S+]([O-])c1ccc(-c2nc(-c3ccncc3)c(-c3ccc(F)cc3)[nH]2)cc1 (stereo not shown)
target | remaining activity [%]
MET (Homo sapiens, UniProt P08581) | 103
MARK2 (Homo sapiens, UniProt Q7KZI7) | 99.1
MINK1 (Homo sapiens, UniProt Q8N4C8) | 107
NEK3 (Homo sapiens, UniProt P51956) | 92.2
AKT2 (Homo sapiens, UniProt P31751) | 96.8
RPS6KA4 (Homo sapiens, UniProt O75676) | 99.6
MARK4 (Homo sapiens, UniProt Q96L34) | 98.5
Cyclin-dependent kinase 1, with cyclin A (CDK1, Homo sapiens, UniProt P06493) | 91.2
CLK4 (Homo sapiens, UniProt Q9HAZ1) | 98.7
GRK4 (Homo sapiens, UniProt P32298) | 95.5
MAPK1 (Homo sapiens, UniProt P28482) | 94.7
PRKG2 (Homo sapiens, UniProt Q13237) | 92.7
PNCK (Homo sapiens, UniProt Q6P2M8) | 102
TXK (Homo sapiens, UniProt P42681) | 63.9
CAMK4 (Homo sapiens, UniProt Q16566) | 101
MAP2K1 (Homo sapiens, UniProt Q02750) | 94.8
DDR2 (Homo sapiens, UniProt Q16832) | 103
CDC42BPB (Homo sapiens, UniProt Q9Y5S2) | 105
Cyclin-dependent kinase 9, with cyclin K (CDK9, Homo sapiens, UniProt P50750) | 98.6
PLK3 (Homo sapiens, UniProt Q9H4B4) | 97.3

Set 2 — observed: cell-free assay; method: competition with immobilised ligand; tested at: 0.1 µM
Structure (SMILES): Nc1c(C(=O)NCc2ccc(C(=O)NCCCC3CCCCC3)cc2)cnn1-c1ccccc1
target | remaining binding [%]
MAP3K14 (Homo sapiens, UniProt Q99558) | 100
RET (Homo sapiens, UniProt P07949, V804L) | 100
PIK3CA (Homo sapiens, UniProt P42336, E545A) | 100
FLT3 (Homo sapiens, UniProt P36888, D835H) | 100
PRPF4B (Homo sapiens, UniProt Q13523) | 100
Mast/stem cell growth factor receptor Kit, autoinhibited (KIT, Homo sapiens, UniProt P10721) | 100
CDK11B (Homo sapiens, UniProt P21127) | 100

Set 3 — action: inhibitor; tested at: 1 µM
SMILES: C=CC(=O)N1CCC[C@@H](n2nc(-c3ccc(Oc4ccccc4)cc3)c3c(N)ncnc32)C1
target | assay | inhibition
EPHB3 (Homo sapiens, UniProt P54753) | enzyme activity | 0%
MAPK1 (Homo sapiens, UniProt P28482) | enzyme activity | 11%
Cyclin-dependent kinase 4, with cyclin D1 (CDK4, Homo sapiens, UniProt P11802) |  | 0%
MINK1 (Homo sapiens, UniProt Q8N4C8) | enzyme activity | 23%
FER (Homo sapiens, UniProt P16591) | enzyme activity | 0%
MAP3K10 (Homo sapiens, UniProt Q02779) | enzyme activity | 30%
MARK1 (Homo sapiens, UniProt Q9P0L2) | enzyme activity | 9%

Set 4 — method: competitive binding panel; tested at: 1 µM; relative to: vehicle
Compound: COc1ccc2[nH]c3c4[nH]c5ccc(OC)cc5c4c4c(c3c2c1)C(=O)NC4=O
target | remaining binding [%]
EPHA6 (Homo sapiens, UniProt Q9UF33) | 88
PIK3CA (Homo sapiens, UniProt P42336, H1047Y) | 89
CAMK2D (Homo sapiens, UniProt Q13557) | 64
Aurora kinase A (AURKA, Homo sapiens, UniProt O14965) | 57

Set 5 — observed: enzyme activity; action: inhibitor; tested at: 10 µM
Target: Calcium/calmodulin-dependent protein kinase type II subunit alpha (CAMK2A, Homo sapiens, UniProt Q9UQM7)
Sequence of UniProt Q9UQM7 (whole entry, looked up): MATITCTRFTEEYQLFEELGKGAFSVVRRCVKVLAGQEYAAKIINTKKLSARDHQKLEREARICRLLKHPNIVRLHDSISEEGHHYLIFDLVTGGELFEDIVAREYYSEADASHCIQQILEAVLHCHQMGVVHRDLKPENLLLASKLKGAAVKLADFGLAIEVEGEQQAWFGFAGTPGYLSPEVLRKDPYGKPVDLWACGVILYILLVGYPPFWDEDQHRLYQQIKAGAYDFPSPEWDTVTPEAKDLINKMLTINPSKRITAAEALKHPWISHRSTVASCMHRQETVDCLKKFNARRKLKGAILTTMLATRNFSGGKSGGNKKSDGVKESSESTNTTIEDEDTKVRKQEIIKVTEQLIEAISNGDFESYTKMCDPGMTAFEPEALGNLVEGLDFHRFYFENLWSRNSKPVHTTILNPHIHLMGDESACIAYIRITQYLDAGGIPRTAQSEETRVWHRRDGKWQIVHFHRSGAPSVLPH
SMILES | inhibition
COc1c(-c2ccc(O)c(O)c2)oc2cc(O)cc(O)c2c1=O | -39%
C[C@H](CC[C@@H](O[C@@H]1O[C@H](CO[C@@H]2O[C@H](CO)[C@@H](O)[C@H](O)[C@H]2O)[C@@H](O)[C@H](O)[C@H]1O)C(C)(C)O)[C@H]1CC[C@@]2(C)[C@@H]3CC=C4[C@@H](CC[C@H](O)C4(C)C)[C@]3(C)[C@H](O)C[C@]12C | 6%
N[C@H](CO)C(=O)O | -7%
CC(=O)S[C@@H]1CC2=CC(=O)CC[C@]2(C)[C@H]2CC[C@@]3(C)[C@@H](CC[C@@]34CCC(=O)O4)[C@H]12 | -6%
NC(N)=N/N=C/c1c(Cl)cccc1Cl | -9%

For quick reference, copied from above (set 1):
target | remaining activity [%]
MINK1 (Homo sapiens, UniProt Q8N4C8) | 107
NEK3 (Homo sapiens, UniProt P51956) | 92.2
AKT2 (Homo sapiens, UniProt P31751) | 96.8
RPS6KA4 (Homo sapiens, UniProt O75676) | 99.6
MARK4 (Homo sapiens, UniProt Q96L34) | 98.5
